Assay results collected from several papers.
Each numbered part is a random draw from the data of one study; scales do not carry over between parts.

Set 1
Target: Interferon regulatory factor 7, full length, phosphomimetic (IRF7, Homo sapiens, UniProt Q92985, residues 1-503, S101K/S471D/S472D/S475D/S476D/S477D/S483D/S484D/S487D)
Method: protein-binding microarray
Form: double-stranded DNA, one strand shown
Medium: in vitro
Concentration: 250 nM
Setting: 60-bp whole probe
Added: salmon DNA 0.4 mg/ml
Relative to: random background probes
Direction: higher = stronger binding
Measurement: log fluorescence
Shared flanks, not repeated: GCCTAGCAC … GTCTTGATTCGCTTGACGCTGCTG
Residues (chain): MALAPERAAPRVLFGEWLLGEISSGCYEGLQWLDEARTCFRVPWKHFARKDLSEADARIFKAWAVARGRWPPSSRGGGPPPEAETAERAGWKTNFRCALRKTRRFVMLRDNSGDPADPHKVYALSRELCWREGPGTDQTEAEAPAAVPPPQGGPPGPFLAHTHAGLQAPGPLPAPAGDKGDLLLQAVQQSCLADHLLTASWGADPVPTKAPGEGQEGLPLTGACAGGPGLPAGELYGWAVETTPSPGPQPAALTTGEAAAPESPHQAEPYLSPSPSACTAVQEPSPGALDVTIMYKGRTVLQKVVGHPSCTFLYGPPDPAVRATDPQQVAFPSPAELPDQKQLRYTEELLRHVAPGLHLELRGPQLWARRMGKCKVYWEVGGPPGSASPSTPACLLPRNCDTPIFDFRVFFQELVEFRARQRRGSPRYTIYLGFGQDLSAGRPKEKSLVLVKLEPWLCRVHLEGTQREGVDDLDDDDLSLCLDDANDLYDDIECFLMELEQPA
GACGGTTTCGTTTTCGGGACGTGCTAG: 13.4 z-score
TCATGTTTTAAATTCTAACTGTGCTAG: 0.902 z-score
CTGCTAGGGCACACAAGTCAGTGCTAG: -0.654 z-score
GTCGATTTCAGACTGGAGACGTGCTAG: 0.605 z-score
GACGGTCTCGGTATCGGGACGTGCTAG: 1.54 z-score
TTAGATCTCAGTCTCGATGAGTGCTAG: 0.265 z-score
GACGGACTGGAATTTCGGGACGTGCTA: -0.0955 z-score

Set 2
Target: Centromere-binding protein 1, full length, N-terminal tag (CBF1, Saccharomyces cerevisiae, UniProt P17106, residues 1-351)
Sequence of UniProt P17106 (whole entry, looked up): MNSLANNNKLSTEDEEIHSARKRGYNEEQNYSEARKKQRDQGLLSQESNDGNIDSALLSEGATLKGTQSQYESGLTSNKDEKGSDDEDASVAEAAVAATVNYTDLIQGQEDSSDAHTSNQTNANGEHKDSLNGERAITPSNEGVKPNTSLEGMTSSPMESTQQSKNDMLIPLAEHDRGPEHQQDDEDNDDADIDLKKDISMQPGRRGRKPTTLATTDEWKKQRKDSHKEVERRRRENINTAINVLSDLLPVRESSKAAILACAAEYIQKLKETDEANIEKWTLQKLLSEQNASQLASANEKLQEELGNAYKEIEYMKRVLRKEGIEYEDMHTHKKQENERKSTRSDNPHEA
Method: protein-binding microarray
Form: double-stranded DNA, one strand shown
Medium: in vitro
Concentration: 0.8 µM
Setting: whole 60-bp probe, no competitor
Direction: higher = stronger binding
Measurement: fluorescence intensity
TGTACGAAGCTATACCACATGTTTATAGTAGTTAGGGTCTTGATTCGCTTGACGCTGCTG: 667 a.u.
CTATGGAATCAAGGTGGTGCCGGTGTGAAGCCGTTCGTCTTGATTCGCTTGACGCTGCTG: 506 a.u.
GAAGGTTGAAAAGAGCACACCTGAGTCATCTGATAGGTCTTGATTCGCTTGACGCTGCTG: 635 a.u.
GAAATAATAAGCACGCACGAGATGTCCTCCGATTAGGTCTTGATTCGCTTGACGCTGCTG: 853 a.u.

Set 3
Target: Fragile X messenger ribonucleoprotein 1, C-terminal low-complexity region (Fmr1, Mus musculus, UniProt P35922)
Method: RNA Bind-n-Seq
Form: RNA
Medium: in vitro
Concentration: 200 nM
Setting: whole 134-nt RNA, ends assumed
Added: 150 mM LiCl
Relative to: input library
Direction: higher = stronger binding
Measurement: log2 enrichment
Library: 7-deaza-guanosine replaces G
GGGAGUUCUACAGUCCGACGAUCUGGGAGGUGGAUUUUGUUUAUUUUUUUAGCUCAUUUACAGGGGUGGGAAUUUUUUUUUAAUAUGUGUCAUGAAUAAAGUUGUUUUUGAAAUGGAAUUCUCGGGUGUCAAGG: 1.28
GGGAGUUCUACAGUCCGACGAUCAGUCCUGUGCUACACAUCGUAUGUACCGAAUCGGGGCCCCGGCCCCGGGCCCCGGGGAAAGUAUUAUGUUACGCCGUUCGGAUCUGCACUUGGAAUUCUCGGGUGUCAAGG: -3.57
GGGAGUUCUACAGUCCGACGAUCUCCUGUGCUACACAUCGUAUGUACCGAAUCAAAUUUUUAAACCCCCCCAAAUUUUUAAAAAAGUAUUAUGUUACGCCGUUCGGAUCUGCAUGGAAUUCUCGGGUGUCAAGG: 1.9
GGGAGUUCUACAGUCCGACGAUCCUCAAGUCCUGUGCUACACAUCGUAUGUACCGAAUCGGCCGGGCCGGGCCGGGAAAGUAUUAUGUUACGCCGUUCGGAUCUGCACUUCCAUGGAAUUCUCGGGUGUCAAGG: -0.0574
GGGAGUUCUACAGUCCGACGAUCGAUGAGACAGAUGCUUCAUCAGCAGUGAAAGUGAAAAGAGCAGUCCAGAAAACAUCCGAUUUAAUAGUGUUGGGUCUCCCAUGGAAAACAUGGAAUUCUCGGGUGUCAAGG: -1.12
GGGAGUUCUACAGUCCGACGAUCCUGUGCUACACAUCGUAUGUACCGAAUCGGGGUUUUUUUGGGGAAAAAAAGGGGAAAGGGGAAAGUAUUAUGUUACGCCGUUCGGAUCUGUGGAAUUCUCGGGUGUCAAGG: -1.52
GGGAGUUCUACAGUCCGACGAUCCAAGUCCUGUGCUACACAUCGUAUGUACCGAAUCGGGGUUUGGGGUUUGGUUUGGGAAAGUAUUAUGUUACGCCGUUCGGAUCUGCACUUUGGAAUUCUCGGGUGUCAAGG: -1.51

Mixed results
PhoQ, residues 284 288 289 292 302 303 ASSHFY
fold induction (PhoP, residues 12 14 15 18 19 GHCSL (Escherichia coli, UniProt P23836); Sort-seq, measured: YFP reporter; E. coli; PhoQ-PhoP variant library, added: 10 µM Mg2+; relative to: high Mg2+ state, higher = stronger signaling): 11.5

A few entries again (mixed results):
PhoQ, residues 284 288 289 292 302 303 ASSHFY
fold induction (PhoP, residues 12 14 15 18 19 GHCSL (Escherichia coli, UniProt P23836); Sort-seq, measured: YFP reporter; E. coli; PhoQ-PhoP variant library, added: 10 µM Mg2+; relative to: high Mg2+ state, higher = stronger signaling): 11.5
